Published values of several laboratories.
Values joined by “and” are separate records of one study, mostly repeats; a detail may differ. ± marks the error that the study gave.

| SMILES | assay | test system | conditions | scale | measurement | result |
| --- | --- | --- | --- | --- | --- | --- |
| CN1Cc2cc(Cl)ccc2-n2c(nnc2C2CCN(c3cccc([18F])n3)CC2)C1 | – | C57BL/6 mouse male, testis | intravenous, dose not given, 30 min, added: blocking agent 10 mg/kg | – | tissue uptake | 1.44 ± 0.53 %ID/g |
| CC(CCC(=O)NCC(=O)O)C1CCC2C3C(O)CC4CC(OC5OC(C(=O)O)C(O)C(O)C5O)CCC4(C)C3CCC12C (stereo not drawn) | – | women, C/C genotype, plasma | dose not given, geometric mean | – | glucuronide to parent ratio | 0.41 |
| CSCC[C@H](N)C(=O)N[C@@H](C)C(=O)N[C@@H](CCCNC(=N)N)C(=O)N[C@@H](CCCNC(=N)N)C(=O)N[C@@H](CC(=O)O)C(=O)N[C@@H](CCCCN)C(=O)N[C@H](C(=O)N[C@@H](CC(=O)O)C(=O)N[C@@H](Cc1ccccc1)C(=O)N[C@@H](C)C(=O)N[C@@H](CCCNC(=N)N)C(=O)N[C@@H](CCCNC(=N)N)C(=O)N[C@@H](CCCNC(=N)N)C(=O)N[C@@H](CCCNC(=N)N)C(=O)NCCCCCC(=O)NCCCCC(NC(=O)CCCCCNC(=O)[C@H](CCCNC(=N)N)NC(=O)[C@H](CCCNC(=N)N)NC(=O)[C@H](CCCNC(=N)N)NC(=O)[C@H](CCCNC(=N)N)NC(=O)[C@H](C)NC(=O)[C@H](Cc1ccccc1)NC(=O)[C@H](CC(=O)O)NC(=O)[C@@H](NC(=O)[C@H](CCCCN)NC(=O)[C@H](CC(=O)O)NC(=O)[C@H](CCCNC(=N)N)NC(=O)[C@H](CCCNC(=N)N)NC(=O)[C@H](C)NC(=O)[C@@H](N)CCSC)[C@@H](C)O)C(=O)NCCCCC(NC(=O)C(CCCCNC(=O)CCCCCNC(=O)[C@H](CCCNC(=N)N)NC(=O)[C@H](CCCNC(=N)N)NC(=O)[C@H](CCCNC(=N)N)NC(=O)[C@H](CCCNC(=N)N)NC(=O)[C@H](C)NC(=O)[C@H](Cc1ccccc1)NC(=O)[C@H](CC(=O)O)NC(=O)[C@@H](NC(=O)[C@H](CCCCN)NC(=O)[C@H](CC(=O)O)NC(=O)[C@H](CCCNC(=N)N)NC(=O)[C@H](CCCNC(=N)N)NC(=O)[C@H](C)NC(=O)[C@@H](N)CCSC)[C@@H](C)O)NC(=O)CCCCCNC(=O)[C@H](CCCNC(=N)N)NC(=O)[C@H](CCCNC(=N)N)NC(=O)[C@H](CCCNC(=N)N)NC(=O)[C@H](CCCNC(=N)N)NC(=O)[C@H](C)NC(=O)[C@H](Cc1ccccc1)NC(=O)[C@H](CC(=O)O)NC(=O)[C@@H](NC(=O)[C@H](CCCCN)NC(=O)[C@H](CC(=O)O)NC(=O)[C@H](CCCNC(=N)N)NC(=O)[C@H](CCCNC(=N)N)NC(=O)[C@H](C)NC(=O)[C@@H](N)CCSC)[C@@H](C)O)C(N)=O)[C@@H](C)O (stereo partly drawn) | – | C57BL/6 mouse female, femur | dose not given, 3 h | reference: total | tissue distribution | 1.21% and 1.08% and 1.75% |
| O=C1NC2(CC2)COc2ncc(F)cc2[C@H]2COCCN2c2ccn3ncc1c3n2 | – | Sprague-Dawley rat, male, serum | oral, 20 mg/kg/day, end of treatment, 4-week subacute toxicity | – | serum sodium | 146 ± 2 mmol/L |
| CCCCC[C@H]1C(=O)N(C)[C@H](C)C(=O)N(C)[C@@H](CCCCC)C(=O)N(C)[C@H](C)C(=O)N(C)[C@@H](CCCCC)C(=O)N(C)[C@H](C)C(=O)N(C)[C@@H](CCCCC)C(=O)N(C)[C@H](C)C(=O)N1C | PAMPA | – | 500 µM, pH 7.4, UV/ELSD/MS detection | – | log Papp | -5.66 |
| C[C@H](NCc1ccc(-c2ccc(C(F)(F)F)cc2)cc1)C(N)=O | – | Sprague-Dawley rat, brain | oral, 10 mg/kg, 2 h | – | concentration | 6720 ng/g |
| CCOc1ccccc1-n1c(CN2CCNCC2)nc2ccccc2c1=O | – | C57BL/6 mouse, male, plasma | intravenous, 1 mg/kg | – | AUC(0-t) | 1.26 µM·h |
| CC(C)C[C@H](NC(=O)[C@H](C)NC(=O)[C@H](CCCCN)NC(=O)CCNC(=S)Nc1ccc2c(c1)C(=O)OC21c2ccc(O)cc2Oc2cc(O)ccc21)C(=O)N[C@@H](CCC(=O)O)C(=O)N[C@H](C(=O)N[C@@H](CC(C)C)C(=O)N[C@@H](CCCNC(=N)N)C(=O)N[C@@H](CCCNC(=N)N)C(=O)N[C@H](C(=O)N[C@@]1(C)CCCC=CCCC[C@@](C)(C(=O)N[C@@H](CCCNC(=N)N)C(=O)N[C@@H](CC(N)=O)C(=O)N[C@@H](Cc2c[nH]cn2)C(=O)N[C@@H](CCC(=O)O)C(=O)N[C@H](C(=O)N[C@@H](C)C(=O)N[C@@H](Cc2ccccc2)C(N)=O)[C@@H](C)O)NC(=O)[C@H](C(C)C)NC(=O)CNC(=O)[C@H](CC(=O)O)NC1=O)C(C)C)[C@@H](C)O | circular dichroism | potassium phosphate buffer | 20 µM, pH 7.5 | – | α-helicity | 81% |
| CC(=O)NCCCC[C@@H]1NC(=O)[C@H](Cc2c[nH]c3c(C)cccc23)NC(=O)[C@H]([C@@H](C)O)NC(=O)[C@H](CC(N)=O)NC(=O)[C@@H](NC(C)=O)C(C)(C)SSC(C)(C)[C@@H](C(=O)N[C@@H](Cc2ccc(OCCN)cc2)C(=O)N[C@@H](Cc2ccc3ccccc3c2)C(=O)NC2(C(=O)N[C@@H](CCC(=O)O)C(=O)N[C@@H](CC(N)=O)C(=O)N[C@@H](Cc3cccnc3)C(=O)N(C)CC(N)=O)CCOCC2)NC1=O | equilibrium dialysis | rat, plasma | 0.1 µM | – | unbound fraction | 52.1 ± 3.2% |
| N#[11C]c1ccc(-c2csc(NN=C3CCCC3)n2)cc1 | – | C57BL/6 mice, male, muscle | intravenous, 3 MBq, 30 min | – | radioactivity uptake | 1.15 ± 0.6 %ID/g |
| CN[C@H](CC(C)C)C(=O)N[C@H]1C(=O)N[C@@H](CC(N)=O)C(=O)N[C@H]2C(=N)N[C@H]3C(=O)N[C@H](C(=O)N[C@H](C(=O)NCCC[N+](C)(C)C)c4cc(O)cc(O)c4-c4cc3ccc4O)[C@H](O)c3ccc(c(Cl)c3)Oc3cc2cc(c3O[C@@H]2O[C@H](CO)[C@@H](O)[C@H](O)[C@H]2O[C@H]2C[C@](C)(NCc3ccc(-c4ccc(Cl)cc4)cc3)[C@H](O)[C@H](C)O2)Oc2ccc(cc2Cl)[C@H]1O | – | mouse | intravenous, 50 mg/kg | – | half-life | 3.3 h |
| CC[C@H](C)[C@H](NC(=O)[C@H](CCCCN)NC(=O)CNC(=O)[C@H](CC(C)C)NC(=O)[C@H](Cc1ccccc1)NC(=O)[C@H](CCCCN)NC(=O)[C@H](CO)NC(=O)[C@H](Cc1ccccc1)NC(=O)[C@H](Cc1c[nH]c2ccccc12)NC(=O)[C@H](CCC(N)=O)NC(=O)[C@@H](NC(=O)[C@H](Cc1ccccc1)NC(=O)CCCCCNC(=O)CN1CCN(CC(=O)O)CCN(CC(=O)O)CCN(CC(=O)O)CC1)C(C)C)C(=O)N[C@@H](CCC(=O)O)C(=O)N1CCC[C@H]1C(=O)N[C@@H](CC(=O)O)C(=O)N[C@H](C(=O)N[C@@H](CO)C(=O)N[C@@H](CCC(N)=O)C(=O)N[C@H](C(=O)N[C@@H](CCC(N)=O)C(=O)N[C@@H](CC(=O)O)C(=O)N1CCC[C@H]1C(=O)N[C@@H](CC(N)=O)C(=O)N[C@@H](CC(=O)O)C(=O)N[C@@H](CCC(N)=O)C(=O)N[C@@H](Cc1ccc(O)cc1)C(=O)N[C@@H](CCC(=O)O)C(=O)N1CCC[C@H]1C(=O)N[C@@H](Cc1ccccc1)C(=O)O)C(C)C)C(C)C [copper-64 labelled] | – | C57BL/6 mice, spleen | added: LPS 3 mg/kg intratracheal | – | tissue uptake | 1.38 ± 0.2 %ID/g |

For quick reference, copied from above:
| SMILES | assay | test system | conditions | scale | measurement | result |
| --- | --- | --- | --- | --- | --- | --- |
| CC[C@H](C)[C@H](NC(=O)[C@H](CCCCN)NC(=O)CNC(=O)[C@H](CC(C)C)NC(=O)[C@H](Cc1ccccc1)NC(=O)[C@H](CCCCN)NC(=O)[C@H](CO)NC(=O)[C@H](Cc1ccccc1)NC(=O)[C@H](Cc1c[nH]c2ccccc12)NC(=O)[C@H](CCC(N)=O)NC(=O)[C@@H](NC(=O)[C@H](Cc1ccccc1)NC(=O)CCCCCNC(=O)CN1CCN(CC(=O)O)CCN(CC(=O)O)CCN(CC(=O)O)CC1)C(C)C)C(=O)N[C@@H](CCC(=O)O)C(=O)N1CCC[C@H]1C(=O)N[C@@H](CC(=O)O)C(=O)N[C@H](C(=O)N[C@@H](CO)C(=O)N[C@@H](CCC(N)=O)C(=O)N[C@H](C(=O)N[C@@H](CCC(N)=O)C(=O)N[C@@H](CC(=O)O)C(=O)N1CCC[C@H]1C(=O)N[C@@H](CC(N)=O)C(=O)N[C@@H](CC(=O)O)C(=O)N[C@@H](CCC(N)=O)C(=O)N[C@@H](Cc1ccc(O)cc1)C(=O)N[C@@H](CCC(=O)O)C(=O)N1CCC[C@H]1C(=O)N[C@@H](Cc1ccccc1)C(=O)O)C(C)C)C(C)C [copper-64 labelled] | – | C57BL/6 mice, spleen | added: LPS 3 mg/kg intratracheal | – | tissue uptake | 1.38 ± 0.2 %ID/g |
